Measured values pooled from the literature.
Each line is one published result; not all experiments were run side by side. Several values in a cell are separate wells, animals, samples, runs or records. ± gives the spread as reported.

Compound | tested on | assay | system | conditions | how to read | measurement | value
CC(=O)N[C@H](C(=O)N1C[C@H](O)C[C@H]1C(=O)NCc1ccc(-c2scnc2C)cc1)C(C)(C)SCCCCCCNC(=O)C[C@@H]1N=C(c2ccc(Cl)cc2)c2c(sc(C)c2C)-n2c(C)nnc21 | AHNAK (human) | TMT proteomics | HeLa | 1 µM, 24 h | reference: DMSO | relative protein abundance | 1.04
CCOc1ccc(C(C)(CC(=O)O)C(=O)O)cc1 (stereo not drawn) | human AA3 |  |  | 20 µM |  | inhibition | inhibited
C=C(C)Cn1c(SCC(=O)c2ccccn2)nc2sc3c(c2c1=O)CCCC3 | Smoothened | Gli luciferase reporter, agonist | TM3-Gli-Luc | added: SAG 20 nM |  | EC50 | > 20 µM
Oc1ccccc1-c1n[nH]cc1-c1ccnc2ccccc12 | CDC5 (Candida albicans) | kinase binding, MIB/MS competition | Candida albicans lysate | 10 µM | reference: DMSO | log2 fold change | 0.09
CCCCCCOC(=O)[C@]1(O)C[C@@H]2O[C@@]1(C)n1c3ccccc3c3c4c(c5c6ccccc6n2c5c31)C(=O)NC4 | RXFP1 S704A |  | RXFP1 S704A-expressing cells | 1 µM, 30 min, PKA inhibited |  | cAMP response | no effect
CC(=O)N(C)[C@H]1CCN(C(=O)c2cnc3c(c2)C[C@](C)(c2ccc(F)cc2)N3)C1 | vanin activity | item: creatinine-normalised pantetheine | human, urine | 60 mg, 144 h after first dose, median | reference: baseline | urinary pantetheine | 2680%
CC(C)C[C@@H]1NC(=O)[C@H](C)NC(=O)CNC(=O)[C@H](CC(N)=O)NC(=O)[C@@H]2CCCN2C(=O)[C@H](Cc2ccc(O)cc2)NC(=O)[C@H](CCCNC(=N)N)NC(=O)[C@H](Cc2ccccc2)NC(=O)[C@@H](NC(=O)[C@H](CCCCN)NC(=O)[C@@H]2CCCN2C(=O)[C@H](CO)NC(=O)[C@H](C)NC(=O)[C@@H](N)Cc2ccc(O)cc2)CSSC[C@@H](C(=O)N[C@H](C(N)=O)[C@@H](C)O)NC(=O)[C@H](C)NC1=O | fucoidan | binding, isothermal titration calorimetry |  | pH 7.0, 25 °C |  | -ΔG | 8.34 kcal/mol
CCCCCCC(C(C)O)n1cnc2c(N)ncnc21 (stereo not drawn) | anti-cAMP antibody | binding, cAMP EIA, acetylated |  |  |  | EC50 | > 1000 µM
C[N+](C)(C)CCCn1c(=O)c2cc(Br)c3c(=O)n(CCC[N+](C)(C)C)c(=O)c4c5[nH]c6ccccc6[nH]c5c(c1=O)c2c34.[I-].[I-] | HIV-1 LTR-IV G-quadruplex | FRET melting |  | 0.25 µM, K+ 100 mM |  | ΔTm | 11.7 ± 1.2 °C
CC(C)C[C@H](N)C(=O)O | SAR11_1346 protein (Candidatus Pelagibacter sp.) | binding, competition isothermal titration calorimetry |  | added: serine 5 mM competitor |  | Ka | 4.48e+10 M⁻¹ and 3.48e+10 M⁻¹
CCCCCCCC(=O)OC[C@H](COP(=O)(O)O[C@@H]1[C@H](O)[C@H](O)[C@@H](OP(=O)(O)O)[C@H](OP(=O)(O)O)[C@H]1O)OC(=O)CCCCCCC | Kv7.2/Kv7.3(EEE) mutant channel | channel open probability, activator, fitted PIP2 binding model |  | model 2 | reference: channel without bound PIP2 | efficacy factor E2 | 0.001
Nc1nc2c(nc(Br)n2[C@@H]2O[C@@H]3COP(=O)(O)O[C@H]3[C@H]2O)c(=O)[nH]1 | anti-cAMP antibody | binding, cAMP EIA, acetylated |  |  |  | EC50 | > 10 µM
CCCCCNC(=N)N | voltage-gated sodium channel, squid | peak sodium current, blocker, voltage clamp, internal perfusion | Doryteuthis pealeii, giant axon | 8-10 °C, intact inactivation, +100 mV, internal |  | IC50 | ~500 µM
C[n+]1cccc2cc(C=NNC(=O)c3ccc4ccc5ccc(C(=O)NN=Cc6ccc7c(ccc[n+]7C)c6)nc5c4n3)ccc21.[I-].[I-] | MYC promoter parallel G-quadruplex DNA | UV melting |  | 3 µM, 10 mM potassium, added: DNA 3 µM |  | delta Tm | 6.7 °C
O=S(=O)(NCCNC/C=C/c1ccc(Br)cc1)c1cccc2cnccc12 | PKA | inhibitor | mouse zygotes | 20 µM, injection, hCG, 24 h post, early embryonic development |  | embryos arrested at zygote stage | 100%
C[C@H](CCC(=O)O)[C@H]1CC[C@H]2[C@@H]3CC[C@@H]4C[C@H](O)CC[C@]4(C)[C@H]3C[C@H](O)[C@]12C | FXR | reporter gene, agonist, SHP luciferase reporter | Caco-2 |  |  | EC50 | 0.0034 µM
c1coc(-c2n[nH]cc2-c2ccnc3ccccc23)c1 | HRK1 (Candida albicans) | kinase binding, MIB/MS competition | Candida albicans lysate | 10 µM | reference: DMSO | log2 fold change | -0.11

Compound | tested on | assay | system | conditions | how to read | measurement | value
Cn1cc(-c2ccc(-c3cncc(Cl)c3N3CCC4(CCNC4=O)CC3)cc2)cn1 | COLO 205 | microarray, item: FosB |  | concentration not given, 2 h | reference: untreated cells | fold change in expression | 1.4
CN(C)CCCn1c(=O)c2ccc3c(=O)n(CCCN(C)C)c(=O)c4c5[nH]c6ccccc6[nH]c5c(c1=O)c2c34 | HIV-1 LTR-IV G-quadruplex | FRET melting |  | 0.25 µM, K+ 100 mM |  | ΔTm | 11.7 ± 0.6 °C
C=C(C)Cn1c(SCC(=O)c2cccs2)nc2ccccc2c1=O | Smoothened | Gli luciferase reporter, agonist | TM3-Gli-Luc | added: SAG 20 nM |  | EC50 | > 20 µM
CC(=O)C1=C(C)N(c2cccc(C(F)(F)F)c2)C(=O)N[C@@H]1c1ccc(C#N)nc1 | chymotrypsin |  |  |  |  | IC50 | > 30 µM
CN(C)CCCn1c(=O)c2cc(Br)c3c(=O)n(CCCN(C)C)c(=O)c4c5[nH]c6ccc(C(=O)O)cc6[nH]c5c(c1=O)c2c34 | HIV-1 LTR-IV G-quadruplex | FRET melting |  | 0.25 µM, K+ 100 mM |  | ΔTm | 4.7 ± 0.6 °C
O=C(NN=Cc1ccc(C[n+]2ccccc2)cc1)c1ccc2ccc3ccc(C(=O)NN=Cc4ccc(C[n+]5ccccc5)cc4)nc3c2n1.[Br-].[Br-] | telomeric antiparallel G-quadruplex DNA | UV melting |  | 3 µM, 10 mM potassium, added: DNA 3 µM |  | delta Tm | 1.4 °C
Cc1ccc(C(=O)Nc2ccc3ccccc3c2)o1 | Kv7.1 potassium channel human | ion current, inhibitor, whole-cell patch clamp |  | 10 µM |  | inhibition | 10% and 8.36% and 12.8% and 4.8% and 3.6%
FC(F)(F)CN1CC(n2cc(Oc3ccn4nc(Cl)cc4n3)cn2)C1 | ELOVL1 (human) | C26:0/C22:0 SM ratio reduction, mass spectrometry | patient fibroblasts | 72 h |  | EC50 | 0.052 µM
COC(=O)CCc1ccc(C(=O)N/N=C/C(Br)=C/c2ccccc2)cc1 | human Hsp90α-p23 interaction | split luciferase reporter | HEK293T | 30 µM, 24 h |  | inhibition | 16%
COc1ccccc1N1CCN(C(=O)c2cccc(S(=O)(=O)n3cncn3)c2)CC1 | AKR1C1, AKR1C2, AKR1C4 (human) | enzyme activity, competitive ABPP | HEK-293T | concentration not given, 5-120 min |  | activity | inactive
CN(C)CCCNc1cc2c(=O)n(CCCN(C)C)c(=O)c3c4[nH]c5ccccc5[nH]c4c4c(=O)n(CCCN(C)C)c(=O)c1c4c23 | HIV-1 LTR-IV G-quadruplex | FRET melting |  | 0.25 µM, K+ 100 mM |  | ΔTm | 3 ± 1 °C
CCN(CC)CCCC(C)Nc1cnc(C(=O)Nc2ccc(Cl)c3cccnc23)cn1 (stereo not drawn) | LC3B | Western blot | human cells | 72 h |  | lowest concentration raising LC3B | 2.5 µM
C=C(C)Cn1c(SCC(=O)c2nccs2)nc2sc3c(c2c1=O)CCCC3 | Smoothened | Gli luciferase reporter, agonist | TM3-Gli-Luc | added: SAG 20 nM |  | EC50 | > 20 µM
CN(C)CCCn1c(=O)c2ccc3c(=O)n(CCCN(C)C)c(=O)c4c5[nH]c6cc(C(=O)O)ccc6[nH]c5c(c1=O)c2c34 | HIV-1 LTR-IV G-quadruplex | FRET melting |  | 0.25 µM, K+ 100 mM |  | ΔTm | 6.3 ± 0.6 °C
CNS(=O)(=O)Nc1nccc(Cc2c(C)c3ccc(Oc4ncccn4)cc3oc2=O)c1F | RAF kinases | RAF-mediated MEK1 phosphorylation, TR-FRET |  | concentration not given |  | inhibition | inhibited
CC[C@H](C)[C@H](NC(=O)[C@H](CC(=O)O)NC(=O)[C@H](CCC(=O)O)NC(=O)[C@@H](N)CC(N)=O)C(=O)N[C@@H](CC(=O)O)C(=O)N[C@@H](CCC(N)=O)C(=O)N[C@@H](CCSC)C(=O)N[C@@H](Cc1ccccc1)C(=O)N[C@@H](CO)C(=O)N[C@H](C(=O)N[C@@H](CC(C)C)C(=O)N[C@@H](CC(C)C)C(=O)NCC(=O)N[C@@H](CCC(=O)O)C(=O)N[C@@H](CCSC)C(=O)N[C@@H](CC(=O)O)C(=O)N[C@@H](CC(C)C)C(=O)N[C@@H](CC(C)C)C(=O)N[C@H](C(=O)N[C@@H](CCC(N)=O)C(=O)N[C@@H](CO)C(=O)O)[C@@H](C)O)[C@@H](C)O | integrin αIIbβ3 THD-W359A | integrin activation, PAC-1 binding flow cytometry | CHO-A5 expressing αIIbβ3 THD-W359A | up to 100 µM, 30 min, 37 °C |  | inhibition | no inhibition

Some of these lines once more:
Compound | tested on | assay | system | conditions | how to read | measurement | value
CCN(CC)CCCC(C)Nc1cnc(C(=O)Nc2ccc(Cl)c3cccnc23)cn1 (stereo not drawn) | LC3B | Western blot | human cells | 72 h |  | lowest concentration raising LC3B | 2.5 µM
C=C(C)Cn1c(SCC(=O)c2nccs2)nc2sc3c(c2c1=O)CCCC3 | Smoothened | Gli luciferase reporter, agonist | TM3-Gli-Luc | added: SAG 20 nM |  | EC50 | > 20 µM
CN(C)CCCn1c(=O)c2ccc3c(=O)n(CCCN(C)C)c(=O)c4c5[nH]c6cc(C(=O)O)ccc6[nH]c5c(c1=O)c2c34 | HIV-1 LTR-IV G-quadruplex | FRET melting |  | 0.25 µM, K+ 100 mM |  | ΔTm | 6.3 ± 0.6 °C
CNS(=O)(=O)Nc1nccc(Cc2c(C)c3ccc(Oc4ncccn4)cc3oc2=O)c1F | RAF kinases | RAF-mediated MEK1 phosphorylation, TR-FRET |  | concentration not given |  | inhibition | inhibited
